Results from different studies.
Compare with care: the assays were run in different laboratories. ± marks the error that the study gave.
Target: Delta-type opioid receptor (Oprd1, Mus musculus, UniProt P32300)

Cc1cc(O)cc(C)c1C[C@H](C)C(=O)N[C@@H]1CSSC[C@@H](C(N)=O)N(C)C(=O)[C@H](Cc2ccccc2)N(C)C(=O)CNC1=O  Kb (antagonist; mouse vas deferens; together with: DPDPE): 277 ± 40 nM
N[C@@H](Cc1ccc(O)cc1)C(=O)N1Cc2ccccc2C[C@H]1C(=O)N[C@@H](Cc1ccccc1)C(=O)N[C@@H](Cc1ccccc1)C(=O)N[C@@H](CC(=O)O)C(=O)NCCOCCOCCNC(=O)CCCC[C@@H]1SC[C@@H]2NC(=O)N[C@@H]21  IC50 (ligand displacement, radioligand): 24.8 nM
CC(C)[C@H](NC(=O)[C@@H]1CCCCNC(=O)NCCC[C@@H](NC(=O)[C@@H](N)Cc2ccc(O)cc2)C(=O)NCC(=O)N[C@@H](Cc2ccccc2)C(=O)N1)C(=O)N[C@H](C(=O)NCC(=O)NCCNC(N)=O)C(C)C  IC50 (contraction inhibition, agonist; mouse, isolated vas deferens): 14.5 ± 1 nM
Cc1cc(C(=O)NCCc2ccc(-c3ccccc3)cc2)cc(C)c1C[C@H](N)C(=O)N1Cc2ccccc2C[C@H]1C(=O)O  Kb (antagonist; mouse vas deferens): 1.76 ± 0.3 nM
CC(C)[C@H](NC(=O)[C@@H]1CNC(=O)NCCC[C@@H](NC(=O)[C@@H](N)Cc2ccc(O)cc2)C(=O)NCC(=O)N[C@@H](Cc2ccccc2)C(=O)N1)C(=O)N[C@H](C(=O)NCC(=O)NCCNC(N)=O)C(C)C  IC50 (contraction inhibition, agonist; mouse, isolated vas deferens): 18.5 ± 2 nM
NC(=O)c1ccc(C[C@H](N)C(=O)N2Cc3ccccc3C[C@H]2C(=O)N[C@@H](Cc2ccccc2)C(=O)N[C@@H](Cc2ccccc2)C(=O)O)cc1  Kb (antagonist): 18.3 ± 2.1 nM
N[C@@H](Cc1ccc(O)cc1)C(=O)N1Cc2ccccc2C[C@H]1C(=O)N[C@@H](Cc1ccccc1)C(=O)N[C@@H](Cc1ccc(N=C=S)cc1)C(=O)N[C@@H](CC(=O)O)C(=O)NCCOCCOCCNC(=O)CCCC[C@@H]1SC[C@@H]2NC(=O)N[C@@H]21  IC50 (ligand displacement, radioligand): 40.5 nM
Cc1cc(O)c(I)c(C)c1C[C@H](N)C(=O)N[C@H](C)C(=O)N[C@@H](Cc1ccccc1)C(=O)N[C@@H](Cc1ccccc1)C(N)=O  Ki (ligand displacement, radioligand; cell membranes): 58 nM

For quick reference, copied from above:
N[C@@H](Cc1ccc(O)cc1)C(=O)N1Cc2ccccc2C[C@H]1C(=O)N[C@@H](Cc1ccccc1)C(=O)N[C@@H](Cc1ccc(N=C=S)cc1)C(=O)N[C@@H](CC(=O)O)C(=O)NCCOCCOCCNC(=O)CCCC[C@@H]1SC[C@@H]2NC(=O)N[C@@H]21  IC50 (ligand displacement, radioligand): 40.5 nM
